Experimental data from different studies.
A part holds a random share of what one study measured.
Sequence of UniProt P54764 (whole entry, looked up): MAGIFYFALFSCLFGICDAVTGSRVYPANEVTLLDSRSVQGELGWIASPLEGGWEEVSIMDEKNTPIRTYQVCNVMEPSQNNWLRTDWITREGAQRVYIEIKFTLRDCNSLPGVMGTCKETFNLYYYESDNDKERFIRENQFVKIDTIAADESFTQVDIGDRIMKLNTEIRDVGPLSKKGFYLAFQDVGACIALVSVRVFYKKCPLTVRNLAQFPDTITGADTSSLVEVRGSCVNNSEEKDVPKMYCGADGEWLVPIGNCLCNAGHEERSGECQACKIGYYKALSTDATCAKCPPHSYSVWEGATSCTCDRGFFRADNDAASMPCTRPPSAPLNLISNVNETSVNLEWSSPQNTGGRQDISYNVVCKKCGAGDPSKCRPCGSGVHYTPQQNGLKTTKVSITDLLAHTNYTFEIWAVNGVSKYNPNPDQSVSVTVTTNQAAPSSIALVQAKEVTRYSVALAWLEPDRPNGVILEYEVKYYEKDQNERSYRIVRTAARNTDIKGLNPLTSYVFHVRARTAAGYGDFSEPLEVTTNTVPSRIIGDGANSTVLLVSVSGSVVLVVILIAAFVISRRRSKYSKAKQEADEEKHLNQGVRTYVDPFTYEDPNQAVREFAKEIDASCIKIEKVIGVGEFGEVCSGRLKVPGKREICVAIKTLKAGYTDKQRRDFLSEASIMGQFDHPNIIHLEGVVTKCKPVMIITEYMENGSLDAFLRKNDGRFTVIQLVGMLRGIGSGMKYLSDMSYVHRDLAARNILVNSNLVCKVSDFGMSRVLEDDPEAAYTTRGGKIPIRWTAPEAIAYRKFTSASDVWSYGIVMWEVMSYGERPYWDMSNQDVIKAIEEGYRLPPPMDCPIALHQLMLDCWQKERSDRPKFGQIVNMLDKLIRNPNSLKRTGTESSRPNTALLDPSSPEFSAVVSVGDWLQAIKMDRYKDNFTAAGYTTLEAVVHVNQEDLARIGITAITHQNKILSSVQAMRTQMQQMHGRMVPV
Sequence of UniProt Q06418 (whole entry, looked up): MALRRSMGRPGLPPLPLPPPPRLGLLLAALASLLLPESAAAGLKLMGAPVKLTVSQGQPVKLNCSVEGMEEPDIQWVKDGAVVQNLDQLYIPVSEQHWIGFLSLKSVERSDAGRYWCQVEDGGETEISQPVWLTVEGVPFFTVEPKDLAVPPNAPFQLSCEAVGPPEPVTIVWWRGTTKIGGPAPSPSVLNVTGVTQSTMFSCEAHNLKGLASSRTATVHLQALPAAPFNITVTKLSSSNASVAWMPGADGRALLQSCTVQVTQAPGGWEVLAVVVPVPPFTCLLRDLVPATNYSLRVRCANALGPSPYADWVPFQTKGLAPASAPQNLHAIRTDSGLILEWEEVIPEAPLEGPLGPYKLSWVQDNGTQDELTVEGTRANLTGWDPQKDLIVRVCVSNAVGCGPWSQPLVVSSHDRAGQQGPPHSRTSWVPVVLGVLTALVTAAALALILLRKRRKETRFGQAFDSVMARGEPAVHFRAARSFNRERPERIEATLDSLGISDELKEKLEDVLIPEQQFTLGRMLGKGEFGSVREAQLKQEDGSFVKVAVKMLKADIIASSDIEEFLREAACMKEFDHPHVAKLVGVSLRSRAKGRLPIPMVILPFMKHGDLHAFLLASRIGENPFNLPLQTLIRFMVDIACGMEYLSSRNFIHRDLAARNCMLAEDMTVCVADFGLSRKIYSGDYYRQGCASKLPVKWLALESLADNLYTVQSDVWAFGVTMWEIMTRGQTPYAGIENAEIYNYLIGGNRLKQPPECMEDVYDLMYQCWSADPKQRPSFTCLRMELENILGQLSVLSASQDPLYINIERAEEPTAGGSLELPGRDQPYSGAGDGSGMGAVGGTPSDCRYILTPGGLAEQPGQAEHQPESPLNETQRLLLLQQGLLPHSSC
Sequence of UniProt Q9H422 (whole entry, looked up): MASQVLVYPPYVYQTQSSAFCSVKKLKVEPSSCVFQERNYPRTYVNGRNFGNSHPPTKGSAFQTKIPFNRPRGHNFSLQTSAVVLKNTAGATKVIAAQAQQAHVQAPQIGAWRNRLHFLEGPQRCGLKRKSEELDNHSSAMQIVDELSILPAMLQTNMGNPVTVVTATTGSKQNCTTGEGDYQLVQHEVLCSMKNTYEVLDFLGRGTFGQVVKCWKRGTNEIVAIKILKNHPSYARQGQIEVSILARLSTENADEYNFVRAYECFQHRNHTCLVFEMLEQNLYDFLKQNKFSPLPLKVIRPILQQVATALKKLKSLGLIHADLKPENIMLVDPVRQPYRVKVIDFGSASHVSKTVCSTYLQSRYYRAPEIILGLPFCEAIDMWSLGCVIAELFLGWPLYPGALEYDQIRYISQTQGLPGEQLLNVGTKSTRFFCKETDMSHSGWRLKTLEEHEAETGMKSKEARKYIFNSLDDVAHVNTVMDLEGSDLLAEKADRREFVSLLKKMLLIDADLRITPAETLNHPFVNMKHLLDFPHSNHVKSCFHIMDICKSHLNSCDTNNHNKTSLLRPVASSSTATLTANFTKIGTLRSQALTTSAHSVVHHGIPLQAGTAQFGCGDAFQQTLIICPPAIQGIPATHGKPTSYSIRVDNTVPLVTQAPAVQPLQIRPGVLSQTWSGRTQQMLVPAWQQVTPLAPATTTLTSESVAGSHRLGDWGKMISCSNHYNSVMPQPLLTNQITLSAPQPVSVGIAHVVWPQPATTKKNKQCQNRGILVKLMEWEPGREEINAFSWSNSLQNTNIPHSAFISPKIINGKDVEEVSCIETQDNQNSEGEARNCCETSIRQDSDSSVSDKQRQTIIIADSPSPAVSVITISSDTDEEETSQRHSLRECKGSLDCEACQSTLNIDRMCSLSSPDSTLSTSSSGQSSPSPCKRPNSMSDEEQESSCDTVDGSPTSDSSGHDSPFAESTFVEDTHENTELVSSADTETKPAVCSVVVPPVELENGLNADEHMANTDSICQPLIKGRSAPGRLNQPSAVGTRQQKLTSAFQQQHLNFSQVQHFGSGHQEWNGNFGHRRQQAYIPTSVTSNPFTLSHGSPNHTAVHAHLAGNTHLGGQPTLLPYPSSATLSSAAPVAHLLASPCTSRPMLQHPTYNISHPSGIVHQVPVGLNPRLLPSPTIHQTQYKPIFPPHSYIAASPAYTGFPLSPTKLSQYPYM
Sequence of UniProt P42680 (whole entry, looked up): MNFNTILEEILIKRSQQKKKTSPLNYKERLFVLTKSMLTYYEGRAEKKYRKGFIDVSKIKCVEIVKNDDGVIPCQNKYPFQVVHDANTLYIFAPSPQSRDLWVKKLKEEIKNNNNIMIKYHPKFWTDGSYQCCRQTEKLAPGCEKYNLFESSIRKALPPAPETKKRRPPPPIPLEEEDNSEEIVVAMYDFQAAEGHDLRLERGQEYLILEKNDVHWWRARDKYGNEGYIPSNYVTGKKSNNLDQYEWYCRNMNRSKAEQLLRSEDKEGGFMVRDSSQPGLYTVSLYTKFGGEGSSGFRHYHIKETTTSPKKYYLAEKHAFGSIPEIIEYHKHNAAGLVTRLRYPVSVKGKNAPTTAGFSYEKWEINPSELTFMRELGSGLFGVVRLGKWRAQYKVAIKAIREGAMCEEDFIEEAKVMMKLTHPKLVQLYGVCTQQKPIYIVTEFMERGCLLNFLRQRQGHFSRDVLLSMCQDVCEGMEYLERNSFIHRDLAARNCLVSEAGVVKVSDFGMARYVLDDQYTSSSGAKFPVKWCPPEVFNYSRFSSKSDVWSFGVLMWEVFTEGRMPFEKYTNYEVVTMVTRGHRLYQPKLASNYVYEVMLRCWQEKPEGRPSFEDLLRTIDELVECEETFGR

Series 1 — effect on: enzyme activity; concentration: 5 µM; baseline: untreated control
Structure (SMILES): O=C(Nc1cnn(-c2csc(C(=O)NC3COC3)c2)c1)Nc1c(F)cccc1Cl
target | remaining activity [%]
DYRK1B (Homo sapiens, UniProt Q9Y463) | 82.2
SRPK1 (Homo sapiens, UniProt Q96SB4) | 99
PAK6 (Homo sapiens, UniProt Q9NQU5) | 88.3
HIPK4 (Homo sapiens, UniProt Q8NE63) | 104
CAMK1D (Homo sapiens, UniProt Q8IU85) | 98.9
MAPK13 (Homo sapiens, UniProt O15264) | 92
EPHA4 (Homo sapiens, UniProt P54764) | 87.8
PRKCG (Homo sapiens, UniProt P05129) | 95.7
TYRO3 (Homo sapiens, UniProt Q06418) | 65.6
PLK1 (Homo sapiens, UniProt P53350) | 92.8
Cyclin-dependent kinase 2, with cyclin O (CDK2, Homo sapiens, UniProt P24941) | 93.5

Series 2 — species: mouse; matrix: microsomes or S9; concentration: 2 µM; time: 0.5 h
SMILES | remaining compound
CNC(=O)c1cc(Br)nn1-c1ncccc1Cl | > 100%
Cc1nc(-c2nn(C)c(C)c2Cl)n(-c2ccc(F)cc2F)n1 | 10.8%
Cc1ccccc1S(=O)(=O)Nc1nc2ccccc2nc1NC(c1ccccc1)c1nccn1C (stereo not drawn) | 34.2%
CCCc1nc(C#N)c(NCc2ccc3c(c2)OCO3)o1 | < 1%
COc1ccc(-c2c(-c3ccccc3)nn(-c3ccc(Cl)cc3Cl)c2N(C)C)cc1OC | 25.4%
Cc1nc(=N)nc2ncc(C(=O)c3ccccc3O)cn12 | 3.66%
Cn1ncc2c(NNC(=O)c3ccc(O)cc3)ncnc21 | 80.1%
Cc1cc(C2CN(C(=O)Cc3ccon3)CCO2)ccc1F (stereo not drawn) | 2.3%

Series 3 — technique: competition with immobilised ligand; concentration: 1 µM
Compound: COc1cc(-c2cn(C3CCc4c(F)cccc4N(CC(F)(F)F)C3=O)nn2)ccc1-n1cnc(C)c1 (stereo not drawn)
target | test | remaining binding [%]
ROCK2 (Homo sapiens, UniProt O75116) | cell-free assay | 100
BLK (Homo sapiens, UniProt P51451) | cell-free assay | 100
HIPK3 (Homo sapiens, UniProt Q9H422) | cell-free assay | 100
FLT3 (Homo sapiens, UniProt P36888) | cell-free assay | 89
Ribosomal protein S6 kinase alpha-3, C-terminal kinase domain (RPS6KA3, Homo sapiens, UniProt P51812) | cell-free assay | 100
DSTYK (Homo sapiens, UniProt Q6XUX3) | cell-free assay | 100
TNNI3K (Homo sapiens, UniProt Q59H18) | cell-free assay | 100
PRKG2 (Homo sapiens, UniProt Q13237) | cell-free assay | 100
FER (Homo sapiens, UniProt P16591) | cell-free assay | 100
PDGFRB (Homo sapiens, UniProt P09619) | cell-free assay | 100
TEC (Homo sapiens, UniProt P42680) | cell-free assay | 100
EGFR (Homo sapiens, UniProt P00533, del747-752/P753S) | cell-free assay | 0
CDK11A (Homo sapiens, UniProt Q9UQ88) | binding | 100
FLT3 (Homo sapiens, UniProt P36888, K663Q) | cell-free assay | 92
WEE2 (Homo sapiens, UniProt P0C1S8) | cell-free assay | 100
MAP2K6 (Homo sapiens, UniProt P52564) | cell-free assay | 100
VRK2 (Homo sapiens, UniProt Q86Y07) | cell-free assay | 100
Tyrosine-protein kinase JAK3, JH1 (JAK3, Homo sapiens, UniProt P52333) | cell-free assay | 100

Series 4 — effect on: enzyme activity; mode: inhibitor; concentration: 10 µM
Target: Calcium/calmodulin-dependent protein kinase type II subunit alpha (CAMK2A, Homo sapiens, UniProt Q9UQM7)
Sequence of UniProt Q9UQM7 (whole entry, looked up): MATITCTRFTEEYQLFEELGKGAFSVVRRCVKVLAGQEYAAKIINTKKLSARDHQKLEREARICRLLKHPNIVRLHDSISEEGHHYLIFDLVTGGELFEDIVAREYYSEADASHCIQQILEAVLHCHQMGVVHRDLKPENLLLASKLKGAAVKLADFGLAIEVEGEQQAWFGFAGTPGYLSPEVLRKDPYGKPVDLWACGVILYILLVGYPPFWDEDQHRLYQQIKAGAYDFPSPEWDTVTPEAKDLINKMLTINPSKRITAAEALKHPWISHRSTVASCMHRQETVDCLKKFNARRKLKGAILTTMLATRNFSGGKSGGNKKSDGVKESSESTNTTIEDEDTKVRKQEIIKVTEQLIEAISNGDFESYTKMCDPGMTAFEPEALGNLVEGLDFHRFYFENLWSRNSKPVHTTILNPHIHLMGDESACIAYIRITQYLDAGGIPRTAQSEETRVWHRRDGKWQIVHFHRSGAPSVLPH
Compound | inhibition
COc1ccc([C@H]2OC[C@H]3[C@@H]2CO[C@H]3c2cc(OC)c(OC)c(OC)c2)cc1OC | 10%
O=S1(=O)CCN(CN2CCS(=O)(=O)NC2)CN1 | -16%
C[C@@H]1CC[C@@]2(OC1)O[C@H]1C[C@H]3[C@@H]4CC[C@@H]5C[C@@H](O)CC[C@]5(C)[C@H]4CC[C@]3(C)[C@H]1[C@@H]2C | -38%
N[C@@H](CCC(=O)NCC(=O)O)C(=O)O | 19%
Nc1ccncc1N | 3%
CC(C)(O)CCc1c(O)cc(O)c2c(=O)c(O)c(-c3ccc(O)cc3)oc12 | -8%
CC1(C)CC[C@]2(C(=O)O[C@@H]3O[C@H](CO)[C@@H](O)[C@H](O)[C@H]3O)CC[C@]3(C)C(=CC[C@@H]4[C@@]5(C)CC[C@H](O[C@@H]6O[C@H](C(=O)O)[C@@H](O)[C@H](O)[C@H]6O[C@@H]6O[C@H](CO)[C@@H](O)[C@H](O)[C@H]6O)C(C)(C)[C@@H]5CC[C@]43C)[C@@H]2C1 | -18%
CC(=O)OCC(=O)[C@@]1(O)CC[C@H]2[C@@H]3CCC4=CC(=O)C=C[C@]4(C)[C@@]3(Cl)[C@@H](Cl)C[C@@]21C | -3%
CC(C)[C@H]1CC[C@H](C(=O)N[C@H](Cc2ccccc2)C(=O)O)CC1 | 5%
COc1cc(CNC(=O)CCCC/C=C/C(C)C)ccc1O[C@@H]1O[C@H](CO)[C@@H](O)[C@H](O)[C@H]1O | -20%
O=C1c2ccccc2C(=O)c2c(O)ccc(O)c21 | -2%

For quick reference, copied from above (series 3):
target | test | remaining binding [%]
FLT3 (Homo sapiens, UniProt P36888) | cell-free assay | 89
HIPK3 (Homo sapiens, UniProt Q9H422) | cell-free assay | 100
PRKG2 (Homo sapiens, UniProt Q13237) | cell-free assay | 100
TNNI3K (Homo sapiens, UniProt Q59H18) | cell-free assay | 100
ROCK2 (Homo sapiens, UniProt O75116) | cell-free assay | 100
